Results from different studies.
Each numbered part is a random draw from the data of one study; scales do not carry over between parts. Positions count from the first letter of the parent shown.

Set 1
Target: Ras GTPase-activating protein-binding protein 1, RRM domain (G3BP1, Homo sapiens, UniProt Q13283)
Chain of UniProt Q13283 (whole entry, looked up): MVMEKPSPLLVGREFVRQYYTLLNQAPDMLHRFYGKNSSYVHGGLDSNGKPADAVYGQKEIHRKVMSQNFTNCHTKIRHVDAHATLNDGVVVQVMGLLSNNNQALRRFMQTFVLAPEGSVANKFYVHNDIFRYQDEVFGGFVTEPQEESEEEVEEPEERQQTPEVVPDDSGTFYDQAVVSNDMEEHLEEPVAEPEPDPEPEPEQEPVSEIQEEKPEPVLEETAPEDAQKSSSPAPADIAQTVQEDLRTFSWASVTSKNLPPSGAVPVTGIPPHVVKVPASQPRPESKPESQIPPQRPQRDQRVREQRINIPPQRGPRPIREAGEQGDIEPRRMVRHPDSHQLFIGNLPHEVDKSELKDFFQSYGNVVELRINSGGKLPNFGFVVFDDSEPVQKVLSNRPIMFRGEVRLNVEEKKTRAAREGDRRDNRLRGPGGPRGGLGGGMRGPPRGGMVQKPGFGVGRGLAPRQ
Method: RNA Bind-n-Seq
Form: RNA
Matrix: in vitro
Concentration: 1 µM
Notes: whole 134-nt RNA, ends assumed
Added: 150 mM KCl
Baseline: input library
Direction: higher = stronger binding
Constant ends, left off below: GGGAGUUCUACAGUCCGACGAUC … UGGAAUUCUCGGGUGUCAAGG
`AAGUCCUGUGCUACACAUCGUAUGUACCGAAUCGGUUUUUGGAAAAAGGAAAAAGGAAAGUAUUAUGUUACGCCGUUCGGAUCUGCACUU` has a log2 enrichment of -0.153.
`GUGCUACACAUCGUAUGUACCGAAUCGGGGAAAAAAAGGGGUUUUUUUGGGGUUUUUUUGGGGAAAGUAUUAUGUUACGCCGUUCGGAUC` has a log2 enrichment of 1.11.
`AAGUCCUGUGCUACACAUCGUAUGUACCGAAUCGGUUUUUUUGGAGGUUUUUUUGGAAAGUAUUAUGUUACGCCGUUCGGAUCUGCACUU` gave a log2 enrichment of -0.403.
`CAAGUCCUGUGCUACACAUCGUAUGUACCGAAUCGGGAGGGUUUUUUUGGGUGGGAAAGUAUUAUGUUACGCCGUUCGGAUCUGCACUUC` gave a log2 enrichment of 0.547.
With `GUCCUGUGCUACACAUCGUAUGUACCGAAUCGUGUGUGUGUGUGUGUGUGUGUGUGUGUAAAGUAUUAUGUUACGCCGUUCGGAUCUGCA` the log2 enrichment was 0.0776.
`ACUGAUGAGAGCCUGAGGAGCCAUUUUGAGCAAUGGGGAACGCUCACGGACUGUGUGGUAAGAUUUGGAAGGGACAAAGCAGUAAAACAG` gave a log2 enrichment of -0.0793.
The log2 enrichment of `AGUCCUGUGCUACACAUCGUAUGUACCGAAUCGGGGAGGGGAGGGGUUUUUUUGGGGAAAGUAUUAUGUUACGCCGUUCGGAUCUGCACU` is reported as 1.01.
With `CACAGACAACACGCACCCCCACAGACACAGAGGGAAGGGGUUGGGAUGGGGACAGGGUGCACAGCAGGGCGGGGUAGGACCCCAGCCCCU` the log2 enrichment was 0.075.
`CUCAAGUCCUGUGCUACACAUCGUAUGUACCGAAUCGGAAAGGAAAAAGGUGGAAAGUAUUAUGUUACGCCGUUCGGAUCUGCACUUCCA` has a log2 enrichment of -0.178.
`GUCCUGUGCUACACAUCGUAUGUACCGAAUCGGAAAAAAAGGAAAAAGGAAAAAAAGGAAAGUAUUAUGUUACGCCGUUCGGAUCUGCAC` gave a log2 enrichment of 0.0681.
The log2 enrichment of `AGUCCUGUGCUACACAUCGUAUGUACCGAAUCGGAAAAAAAGGUUUGGAAAAAAAGGAAAGUAUUAUGUUACGCCGUUCGGAUCUGCACU` is reported as -0.171.
`UACUCUUUGAUUUAUCAAAUGUGUUCAGUUGGAGAAUCGUCCUCAGGAAAGGCUUCAAGGAGCCUUGCACAGCAUAUUCCUGGCCCUGGU` gave a log2 enrichment of -0.36.
`UCCUGUGCUACACAUCGUAUGUACCGAAUCGGAAAAAAAGGGAAAAAAAGGAAAAAAAGGAAAGUAUUAUGUUACGCCGUUCGGAUCUGC` gave a log2 enrichment of 0.115.
With `UGGGAGGUGGAUUUUUUUUAUUUUUUUAGCUCAUUUCCAGGGGUGGGAAUUUUUUUUUAAUAUGUGUCAUGAAUAAAGUUGUUUUUGAAA` the log2 enrichment was 1.94.

Set 2
Target: ABI1, truncated, D143A, DHFR fusion (Arabidopsis thaliana)
Method: DHFR PCA, deep sequencing
Matrix: yeast
Notes: methotrexate growth selection, single substitutions
Added: (+)-ABA 17 µM
Baseline: wild-type fitted maximum
Direction: higher = stronger binding
Starting sequence: PYL1, truncated, DHFR fusion (Arabidopsis thaliana); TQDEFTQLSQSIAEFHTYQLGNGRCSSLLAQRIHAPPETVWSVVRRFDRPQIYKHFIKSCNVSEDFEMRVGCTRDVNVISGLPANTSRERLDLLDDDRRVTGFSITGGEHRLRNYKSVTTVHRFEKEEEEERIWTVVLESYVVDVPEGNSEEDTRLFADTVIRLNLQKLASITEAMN; partner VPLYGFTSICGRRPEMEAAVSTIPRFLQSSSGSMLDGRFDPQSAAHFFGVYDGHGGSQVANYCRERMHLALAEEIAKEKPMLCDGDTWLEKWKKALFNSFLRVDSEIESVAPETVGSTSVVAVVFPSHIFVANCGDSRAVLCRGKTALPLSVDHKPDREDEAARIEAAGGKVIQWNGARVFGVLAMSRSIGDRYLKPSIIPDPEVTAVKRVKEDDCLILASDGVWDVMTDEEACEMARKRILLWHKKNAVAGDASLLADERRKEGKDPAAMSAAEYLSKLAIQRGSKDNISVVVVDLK
Under “relative binding score”, `D95P` is recorded as 7.14%.
`M176A`: “relative binding score” 85.4%.
Under “relative binding score”, `E174F` is recorded as 20.2%.
`A158W`: “relative binding score” 4.67%.
Under “relative binding score”, `Q2C` is recorded as 79.6%.
Under “relative binding score”, `L156M` is recorded as 86.3%.
For `D159Q`, “relative binding score” read 15.3%.
`M176I`: “relative binding score” 80.6%.
Under “relative binding score”, `Q167G` is recorded as 75.4%.
`E89K`: “relative binding score” 6.44%.
`A13L`: “relative binding score” 79.2%.
`N22F` — result for “relative binding score”: 78.2%.
`S80E` — result for “relative binding score”: 4.57%.
For `Y115F`, “relative binding score” read 76.3%.
`L169R`: “relative binding score” 3.14%.
`G102H`: “relative binding score” -7.2%.
For `P50W`, “relative binding score” read -9.96%.
For `V142M`, “relative binding score” read 76.9%.
For `T160E`, “relative binding score” read 2.23%.
Under “relative binding score”, `F157E` is recorded as -7.32%.
`T6K` — result for “relative binding score”: 88.3%.
`N165H` — result for “relative binding score”: -5.58%.
For `N77A`, “relative binding score” read 86.7%.
For `Q31H`, “relative binding score” read 65%.
Under “relative binding score”, `S87R` is recorded as 21.7%.

Set 3
Target: CREB3L3, bZIP domain (human)
Method: DHFR protein complementation
Matrix: yeast
Notes: single substitutions, most at no-binding floor
Baseline: wild-type JUN-FOS pair
Direction: higher = stronger binding
Starting sequence: JUN, bZIP domain (human); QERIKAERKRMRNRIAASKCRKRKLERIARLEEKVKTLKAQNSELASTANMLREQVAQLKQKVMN; partner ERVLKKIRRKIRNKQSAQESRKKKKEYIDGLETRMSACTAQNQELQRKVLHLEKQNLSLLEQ
`V35Q` has a binding fitness of -1.47 natural log.
`A57W` has a binding fitness of -1.46 natural log.
The binding fitness of `V56E` is reported as -1.47 natural log.
For `E32T`, the binding fitness was -1.47 natural log.
For `K36V`, the binding fitness was -1.42 natural log.
`K39C` gave a binding fitness of -1.4 natural log.
With `A57P` the binding fitness was -1.46 natural log.
With `T37P` the binding fitness was -1.52 natural log.
For `A49P`, the binding fitness was -1.48 natural log.
`A57Q` gave a binding fitness of -1.49 natural log.
`A57R` has a binding fitness of -1.4 natural log.
The binding fitness of `I28A` is reported as -1.52 natural log.
For `A40T`, the binding fitness was -1.37 natural log.
`A49V` gave a binding fitness of -1.2 natural log.
For `S47N`, the binding fitness was -1.51 natural log.
For `L59V`, the binding fitness was -1.54 natural log.
With `A29R` the binding fitness was -1.45 natural log.
For `K39F`, the binding fitness was -1.48 natural log.
`R30L` has a binding fitness of -1.39 natural log.
`Q55D` has a binding fitness of -1.52 natural log.
For `S47G`, the binding fitness was -1.43 natural log.
The binding fitness of `K39A` is reported as -1.45 natural log.
For `K34P`, the binding fitness was -1.54 natural log.
The binding fitness of `I28C` is reported as -1.43 natural log.
The binding fitness of `A49K` is reported as -1.16 natural log.

Set 4
Target: CCNA2, cyclin fold, Cln2 fusion (human)
Method: yeast growth competition, sequencing
Matrix: yeast
Notes: weak parent motif
Baseline: not given
Direction: higher = stronger binding
Starting sequence: PKN2 docking peptide (human); DSTVTKLDFDLEP
Under “normalised enrichment score”, `DSTVTKLDFDAEP [L11A]` is recorded as -0.217.
`DSTVTKLDFALEP [D10A]`: “normalised enrichment score” -0.518.
For `DSTVTALDFDLEP [K6A]`, “normalised enrichment score” read -0.299.
Under “normalised enrichment score”, `ASTVTKLDFDLEP [D1A]` is recorded as -0.0774.
For `DSTVTKLDFDLEA [P13A]`, “normalised enrichment score” read -0.323.
For `DSTVAKLDFDLEP [T5A]`, “normalised enrichment score” read -0.423.
Under “normalised enrichment score”, `DSAVTKLDFDLEP [T3A]` is recorded as 0.649.

Set 5
Target: RNA binding protein fox-1 homolog 2, RRM domain, GST-SBP tag (RBFOX2, Homo sapiens, UniProt O43251-10, residues 100-194)
Method: RNA Bind-n-Seq
Form: RNA
Matrix: in vitro
Concentration: 365 nM
Notes: natural RNA segment, single round, ends assumed
Baseline: no-protein control
Direction: higher = stronger binding
Constant ends, left off below: GGGAGUUCUACAGUCCGACGAUC … UGGAAUUCUCGGGUGCCAA
Residues (chain): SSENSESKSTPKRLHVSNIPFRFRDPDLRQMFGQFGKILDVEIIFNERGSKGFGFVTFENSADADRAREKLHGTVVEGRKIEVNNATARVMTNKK
`UGUGUGAAACUUAUAUUUGUAUGUAGCUUUCUAGGAAAAUUUUACAGACACUUAAAGUAUUUAUGCUUAAGUGUGCAUUUUUUUAUUCUAAUAUUCCUUCUAGUCAGUGG`: “RBNS enrichment (R)” 1.33.
`CCAGGUUGGCCAGGCUGGUCUUGUGAACUCCUGGCCUCAGGUGAUCUGCCCACCUCAUCCUCCAAAAGUGCUGGGAUUACAGGCAUGAGCCACUGCGCCUGGCCUCAGAA`: “RBNS enrichment (R)” 0.438.
`AACACCUUGAGCCUUAAAUCCCGGCUGCUGGGAAAGUAUAUGCUGUUCCUAGAACAUUCACUGUGCCUUUGCCUGCUUGCUGGCUGCAGCCUCAGAAGGAAAGCCAGGGG` — result for “RBNS enrichment (R)”: 0.427.
`UCCUCAGGCGGCUCCUCUGUAAAAUGAGAAAAUGUAUAUUUUUUUACUUCAUGAGAUCUUUGCUGGAAAUUAAUGAGAAGGGUCAGUGUUUGUGACUUAUGGGCUUAUUU`: “RBNS enrichment (R)” 0.334.
`CACAGCAGCCUCUGAGGAAAGACAAGGACAAGAAGAAGUUUGACCCUCAGCCCGGGACGCCACAAACUGAAGCGAGUUCCCUGCUUUGCUCGUCACAAAUGCCAAACUGA`: “RBNS enrichment (R)” 0.369.
`UGUGCCCAGCUGUCACUCACUCAGCAGCUUCCUUGCAGCAGAGCAGGGCUGAGGGGAAGGGGCUAUGAAUGUUUGUAUACAUGUUCACAGGGCACGGAAAAUCUUAUGCU`: “RBNS enrichment (R)” 0.571.
`CAUAGAAAAACUGUUCUCAGUUUUAUUUUUACCUAACACUAACAUGAGUAACCUAAGGGAAGUGCUGAAUGGUGUUGGCAGGGGUAUUAAACGUGCAUUUUUACUCAACU`: “RBNS enrichment (R)” 0.431.
For `UAUAAAUUGUCUUAUAUUUCUUAACCUCUUUUAUAAAAAUUUUCCUAGAAGGUUUAUACUGCCUUCUUGCUUUAAAGCAAUUGGUCUAAAAUAUAUGUAAUCGUCUUAAU`, “RBNS enrichment (R)” read 0.6.
`CUUGGUGUGAGACAAGGCACAUGCACGGGGUGCUCGGUCCCUCUGUGGGCUGUGCGUGGGUUCACCUGGGGCCUGCUUUUCAGAAGGCAAAGAUAAGCCCGCCAUGCUGG` — result for “RBNS enrichment (R)”: 1.12.
For `GCAUUAUAUAUACCUAUCACUGAUUUAAUGUUCCAAUGUAGAUAGACACUAUUAAAUAAGCAGUAAUUCCUUGAAAGGAGUACCUGUACCAAGUCCUAGGAAAUAAUGCU`, “RBNS enrichment (R)” read 0.391.
Under “RBNS enrichment (R)”, `UUUAAGGGUUGUGAGCCCCUUGGGGGUUCAGGGAACUGCUUGCCCAGGGUGCAGUGUGAGUGUGAUGGGCCACCGGGGCAAGAGGGAAGGUGACCGCCCAGCUCUCCCAC` is recorded as 1.46.
Under “RBNS enrichment (R)”, `UGGAACUGGCAACCUUGAAGGGUGAUUCCCCCCCACCCCCAGAGGAUCAGCUGCCUGUGGUUGGGACAGGGCACACCACCUUCCCUCAGACGGUCUUGCUAAGUAUAUGA` is recorded as 2.28.
